Published values collected from several papers.
Every numbered part comes from another study and shows a few of its results, in no order. Substitutions count along the parent as printed. Numbers after ± are the reported error.
Chain of UniProt Q92630 (whole entry, looked up): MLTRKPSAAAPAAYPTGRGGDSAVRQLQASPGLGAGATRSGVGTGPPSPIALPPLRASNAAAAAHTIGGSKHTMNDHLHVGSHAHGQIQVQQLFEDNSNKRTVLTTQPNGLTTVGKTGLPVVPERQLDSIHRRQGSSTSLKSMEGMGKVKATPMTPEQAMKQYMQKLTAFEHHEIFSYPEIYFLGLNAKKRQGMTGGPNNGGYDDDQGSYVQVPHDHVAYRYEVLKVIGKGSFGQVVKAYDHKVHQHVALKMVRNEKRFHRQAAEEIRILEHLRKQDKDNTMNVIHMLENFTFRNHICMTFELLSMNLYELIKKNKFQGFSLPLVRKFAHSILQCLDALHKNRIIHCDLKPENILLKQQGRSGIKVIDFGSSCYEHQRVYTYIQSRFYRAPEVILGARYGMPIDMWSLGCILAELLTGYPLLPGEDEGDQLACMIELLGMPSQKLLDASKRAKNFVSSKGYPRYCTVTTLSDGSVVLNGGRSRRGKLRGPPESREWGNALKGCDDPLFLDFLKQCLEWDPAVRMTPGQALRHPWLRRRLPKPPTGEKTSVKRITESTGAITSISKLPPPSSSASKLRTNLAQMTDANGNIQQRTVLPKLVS

Block 1 — method: DHFR PCA, deep sequencing; medium: yeast; with: (+)-ABA 0.032 µM; relative to: wild-type fitted maximum; direction: higher = stronger binding; quantity: relative binding score
Target: ABI1, truncated, D143A, DHFR fusion (Arabidopsis thaliana)
Setting: methotrexate growth selection, single substitutions
Parent: PYL1, truncated, DHFR fusion (Arabidopsis thaliana); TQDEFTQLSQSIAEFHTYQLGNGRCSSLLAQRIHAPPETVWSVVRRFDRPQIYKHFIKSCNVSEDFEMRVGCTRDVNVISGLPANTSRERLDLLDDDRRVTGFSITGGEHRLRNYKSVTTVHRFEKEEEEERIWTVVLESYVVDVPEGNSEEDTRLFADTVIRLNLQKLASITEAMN; partner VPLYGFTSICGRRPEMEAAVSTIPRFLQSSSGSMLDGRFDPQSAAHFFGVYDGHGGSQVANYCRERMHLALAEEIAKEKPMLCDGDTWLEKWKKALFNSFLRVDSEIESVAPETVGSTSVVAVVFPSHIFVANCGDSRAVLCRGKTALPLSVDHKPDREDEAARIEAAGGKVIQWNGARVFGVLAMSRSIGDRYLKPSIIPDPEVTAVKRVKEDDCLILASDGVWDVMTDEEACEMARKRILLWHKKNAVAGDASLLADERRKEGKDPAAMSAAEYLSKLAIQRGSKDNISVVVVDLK
Variant = T17D; result = -5.93%
Variant = E38Q; result = -1.41%
Variant = V78N; result = 38.4%
Variant = T1E; result = 27.6%
Variant = L29M; result = 4.24%
Variant = L169Y; result = -5.77%
Variant = L94R; result = -0.591%
Variant = V143C; result = 48%

Block 2 — method: RNA Bind-n-Seq; molecule type: RNA; medium: in vitro; tested at: not given; relative to: input RNA pool; direction: higher = stronger binding; quantity: bound/input enrichment
Target: RING finger protein unkempt homolog, zinc fingers 1-6, GST-SBP tag (UNK, Homo sapiens, UniProt Q9C0B0, residues 30-357)
Setting: RNA with constant flanks, human-mouse chimeric sites, ends assumed
Constant ends, left off below: GGGAGUUCUACAGUCCGACGAUC … CAACAGAGGAUUGAGCAUCA
Construct (chain): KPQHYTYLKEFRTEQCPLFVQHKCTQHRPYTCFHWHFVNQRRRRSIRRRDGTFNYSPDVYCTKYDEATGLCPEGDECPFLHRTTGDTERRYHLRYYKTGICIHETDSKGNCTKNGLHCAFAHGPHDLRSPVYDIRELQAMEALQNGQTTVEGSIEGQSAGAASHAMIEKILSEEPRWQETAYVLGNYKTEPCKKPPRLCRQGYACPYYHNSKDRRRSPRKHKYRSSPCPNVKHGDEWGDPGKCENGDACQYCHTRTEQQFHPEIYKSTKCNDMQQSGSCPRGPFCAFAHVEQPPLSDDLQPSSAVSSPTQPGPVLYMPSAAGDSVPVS
Sequence = UGUAACUCUUAUCUGUAAGGUUCCCCCCCCCUACUGUCAAAAAAUAUGCAUGUAUAGUAAUUAGGACUUCAUUCCUCCAUGUUUUCUUCCCUUAUCUUACUGUCAUUGUCCUAAAACCUU; result = 2.2 ratio
Sequence = UACUACUAUGAUGGUGAUAUUGGCAAUUAUUAUUAUGGCCAGGGUCAUCCCAUGAAGCCUCAUAGAAUCCGCAUGACUCAUAACUUGCUGCUAAAUUAUGGUUUAUACCGAAAAAUGGAA; result = 0.208 ratio
Sequence = CGCAGAAGGUUAAAGGGUGAGAGUGGGGUGGAAGACUGUGUCAUGGCUCUGGAGACACUGUUCAGUGUCCUGCUUUCUCUUUGCAGACUGAUGGCCCCUUACACGCCCUUUCUGACUGAG; result = 0.0967 ratio
Sequence = UUGGAAGGACCAGAGCCUAAUCAACUGAAACCAUUAGUCAUACAGGCUAUGCCCACCCUAAUAGAAUUAAUGAAAGACCCCAGUGUAGUUGUUCGAGACACAACAGCAUGGACUGUAGGC; result = 2.86 ratio
Sequence = AAAGAGAAACUAAAGCAACUAAUAGAGAAGAGGAUUGGCAAAGAGAAUUUCAUAGAGAAACUAGGAUUUAUUAGCAAACAUGAGUUAUAUUCCAGAGGCAUCUCAGAAACCCCAGCCAAC; result = 9.58 ratio
Sequence = GUUCGGCUCUGGGAUCAUGCCACAAUGACAGAAGUGAAAUCUCUGAAUUUUAAUAUGUCUGUUAGUAGCAUGGAGUAUAUUCCUGAAGGAGAGAUUUUGGUUAUUACUUAUGGACGAUCU; result = 0.348 ratio
Sequence = GUGCCCUUCUCGCUGCUCCUGCGGGGCAGCUGGGAACCAUUCCGGGACUGGUACCCUGCACACAGCCGCCUCUUCGACCAGGCCUUCGGGGUGCCCCGGUUGCCCGAUGAGUGGUCGCAG; result = 0.0515 ratio
Sequence = CACACACUCUUCUGUGGGACCCUCAUCUUGCAGGCCCGGGCCUAUGUGGGACCGCACGUCCUGGCAGUGGUGACCCGCACAGGGUUCUGCACGGCAAAAGGGGGCCUGGUGAGCUCCAUC; result = 0.0502 ratio

Mixed results
Structure (SMILES) = Oc1cccc(-c2nc(N3CCOCC3)c3oc4ncccc4c3n2)c1; target = DYRK2 (Homo sapiens, UniProt Q92630); observed = enzyme activity; mode = inhibitor; tested at = 0.5 µM; relative to = control; remaining activity = 97.6%
Structure (SMILES) = COc1cc(C(=O)N2CCC(N3CCN(C)CC3)CC2)ccc1Nc1ncc2c(n1)N(C)c1ccccc1C(=O)N2C; target = DAPK1; observed = kinase activity; tested at = 10 µM; remaining activity = 77 ± 2%

For quick reference, copied from above (block 1):
Variant = V143C; result = 48%
Variant = T17D; result = -5.93%
